# Assay results pooled from the literature.
# Every numbered part comes from another study and shows a few of its results, in no order.
# UniProt Q9UK32, sequence (whole entry, looked up): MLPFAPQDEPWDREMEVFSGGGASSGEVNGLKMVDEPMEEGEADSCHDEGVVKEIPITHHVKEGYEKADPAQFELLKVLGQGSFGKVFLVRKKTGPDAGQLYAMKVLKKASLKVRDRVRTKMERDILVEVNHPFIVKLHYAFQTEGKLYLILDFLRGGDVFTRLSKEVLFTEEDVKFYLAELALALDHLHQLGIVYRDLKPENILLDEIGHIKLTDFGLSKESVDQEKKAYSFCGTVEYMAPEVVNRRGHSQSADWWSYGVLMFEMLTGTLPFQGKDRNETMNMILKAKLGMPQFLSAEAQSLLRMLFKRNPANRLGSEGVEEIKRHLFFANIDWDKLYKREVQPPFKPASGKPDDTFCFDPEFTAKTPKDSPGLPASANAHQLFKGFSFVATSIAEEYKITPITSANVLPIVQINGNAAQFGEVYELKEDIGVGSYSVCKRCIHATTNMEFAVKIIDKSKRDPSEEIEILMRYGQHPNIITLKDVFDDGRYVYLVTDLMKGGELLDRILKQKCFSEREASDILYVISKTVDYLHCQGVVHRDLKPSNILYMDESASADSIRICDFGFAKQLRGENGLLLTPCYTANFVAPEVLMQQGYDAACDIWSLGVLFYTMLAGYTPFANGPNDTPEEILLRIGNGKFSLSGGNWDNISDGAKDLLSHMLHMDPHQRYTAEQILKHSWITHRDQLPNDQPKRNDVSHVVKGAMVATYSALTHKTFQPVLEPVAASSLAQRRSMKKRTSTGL
# UniProt Q8N568, sequence (whole entry, looked up): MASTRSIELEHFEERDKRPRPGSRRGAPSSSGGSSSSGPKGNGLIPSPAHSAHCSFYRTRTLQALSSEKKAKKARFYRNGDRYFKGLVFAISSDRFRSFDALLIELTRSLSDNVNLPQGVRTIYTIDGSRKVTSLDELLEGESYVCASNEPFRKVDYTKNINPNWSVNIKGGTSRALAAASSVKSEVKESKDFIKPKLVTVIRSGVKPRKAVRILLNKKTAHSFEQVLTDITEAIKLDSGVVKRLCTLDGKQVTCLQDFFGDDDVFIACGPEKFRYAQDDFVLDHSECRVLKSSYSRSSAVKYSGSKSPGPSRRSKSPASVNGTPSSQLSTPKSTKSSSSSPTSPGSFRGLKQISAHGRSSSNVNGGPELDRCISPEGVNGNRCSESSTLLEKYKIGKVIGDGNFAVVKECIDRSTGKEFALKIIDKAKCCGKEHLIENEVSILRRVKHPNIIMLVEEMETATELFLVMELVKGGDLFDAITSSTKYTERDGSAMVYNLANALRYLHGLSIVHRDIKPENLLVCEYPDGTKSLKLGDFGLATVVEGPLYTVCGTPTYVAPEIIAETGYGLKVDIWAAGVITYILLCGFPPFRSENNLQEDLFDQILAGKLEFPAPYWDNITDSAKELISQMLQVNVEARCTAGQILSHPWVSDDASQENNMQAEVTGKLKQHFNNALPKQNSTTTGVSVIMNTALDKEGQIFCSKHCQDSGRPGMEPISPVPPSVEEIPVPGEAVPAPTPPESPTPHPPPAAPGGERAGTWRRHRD
# UniProt Q96L34, sequence (whole entry, looked up): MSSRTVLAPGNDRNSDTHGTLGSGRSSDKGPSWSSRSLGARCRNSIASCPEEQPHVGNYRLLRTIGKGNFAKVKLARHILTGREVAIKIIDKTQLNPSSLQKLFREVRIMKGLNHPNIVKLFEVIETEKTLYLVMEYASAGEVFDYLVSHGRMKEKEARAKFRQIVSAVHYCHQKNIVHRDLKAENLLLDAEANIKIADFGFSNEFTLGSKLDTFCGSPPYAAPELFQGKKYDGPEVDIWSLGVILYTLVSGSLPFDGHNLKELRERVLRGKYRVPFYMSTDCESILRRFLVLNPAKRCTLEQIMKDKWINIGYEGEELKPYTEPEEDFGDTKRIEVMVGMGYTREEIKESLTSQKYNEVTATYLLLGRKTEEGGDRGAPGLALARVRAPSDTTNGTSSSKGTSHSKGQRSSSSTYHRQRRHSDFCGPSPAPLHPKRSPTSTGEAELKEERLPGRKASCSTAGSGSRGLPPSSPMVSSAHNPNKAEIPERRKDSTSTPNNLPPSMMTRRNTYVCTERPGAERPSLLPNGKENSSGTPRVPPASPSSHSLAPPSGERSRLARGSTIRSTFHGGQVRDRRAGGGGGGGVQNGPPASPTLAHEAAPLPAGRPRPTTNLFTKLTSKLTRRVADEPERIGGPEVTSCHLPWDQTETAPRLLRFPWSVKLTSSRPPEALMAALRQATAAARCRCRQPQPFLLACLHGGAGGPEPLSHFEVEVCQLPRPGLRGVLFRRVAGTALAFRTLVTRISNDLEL
# UniProt Q16539, sequence (whole entry, looked up): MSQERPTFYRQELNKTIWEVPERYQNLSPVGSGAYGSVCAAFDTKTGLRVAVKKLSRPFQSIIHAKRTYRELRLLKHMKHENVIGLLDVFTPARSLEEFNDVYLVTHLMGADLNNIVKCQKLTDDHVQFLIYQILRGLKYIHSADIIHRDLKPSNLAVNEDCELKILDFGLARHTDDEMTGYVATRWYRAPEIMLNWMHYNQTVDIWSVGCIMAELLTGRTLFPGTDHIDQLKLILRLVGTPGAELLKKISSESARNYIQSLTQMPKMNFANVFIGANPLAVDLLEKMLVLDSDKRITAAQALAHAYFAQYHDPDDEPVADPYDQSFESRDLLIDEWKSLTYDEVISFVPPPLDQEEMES
# UniProt P51956, sequence (whole entry, looked up): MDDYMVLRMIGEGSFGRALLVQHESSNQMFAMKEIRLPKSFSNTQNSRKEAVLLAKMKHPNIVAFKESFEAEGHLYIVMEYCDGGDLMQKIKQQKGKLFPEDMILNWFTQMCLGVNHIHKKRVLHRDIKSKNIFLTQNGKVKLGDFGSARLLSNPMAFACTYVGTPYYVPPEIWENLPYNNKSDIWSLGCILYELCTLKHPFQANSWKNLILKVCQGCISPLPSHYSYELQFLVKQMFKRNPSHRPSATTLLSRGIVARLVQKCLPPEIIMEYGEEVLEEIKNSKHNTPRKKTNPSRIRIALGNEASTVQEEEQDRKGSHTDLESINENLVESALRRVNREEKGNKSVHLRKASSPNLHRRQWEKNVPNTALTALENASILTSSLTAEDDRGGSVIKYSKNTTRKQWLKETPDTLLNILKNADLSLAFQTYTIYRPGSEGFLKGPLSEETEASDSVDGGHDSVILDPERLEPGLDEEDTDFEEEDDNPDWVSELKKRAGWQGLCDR
# UniProt O75914, sequence (whole entry, looked up): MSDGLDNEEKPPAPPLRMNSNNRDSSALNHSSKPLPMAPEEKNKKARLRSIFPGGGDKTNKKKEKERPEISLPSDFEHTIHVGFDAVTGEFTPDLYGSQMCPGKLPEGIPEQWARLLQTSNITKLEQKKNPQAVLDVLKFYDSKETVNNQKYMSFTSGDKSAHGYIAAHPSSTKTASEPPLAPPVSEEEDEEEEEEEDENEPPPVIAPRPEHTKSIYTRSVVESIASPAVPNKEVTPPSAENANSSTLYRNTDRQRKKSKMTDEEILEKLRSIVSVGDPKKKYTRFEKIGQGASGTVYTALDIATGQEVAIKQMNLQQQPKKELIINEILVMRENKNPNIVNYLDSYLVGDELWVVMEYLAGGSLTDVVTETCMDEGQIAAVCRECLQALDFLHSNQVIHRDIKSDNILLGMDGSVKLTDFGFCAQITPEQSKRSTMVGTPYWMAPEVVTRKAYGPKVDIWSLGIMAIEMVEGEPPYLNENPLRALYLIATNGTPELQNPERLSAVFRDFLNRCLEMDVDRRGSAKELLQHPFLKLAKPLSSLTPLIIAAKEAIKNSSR
# UniProt P35968, sequence (whole entry, looked up): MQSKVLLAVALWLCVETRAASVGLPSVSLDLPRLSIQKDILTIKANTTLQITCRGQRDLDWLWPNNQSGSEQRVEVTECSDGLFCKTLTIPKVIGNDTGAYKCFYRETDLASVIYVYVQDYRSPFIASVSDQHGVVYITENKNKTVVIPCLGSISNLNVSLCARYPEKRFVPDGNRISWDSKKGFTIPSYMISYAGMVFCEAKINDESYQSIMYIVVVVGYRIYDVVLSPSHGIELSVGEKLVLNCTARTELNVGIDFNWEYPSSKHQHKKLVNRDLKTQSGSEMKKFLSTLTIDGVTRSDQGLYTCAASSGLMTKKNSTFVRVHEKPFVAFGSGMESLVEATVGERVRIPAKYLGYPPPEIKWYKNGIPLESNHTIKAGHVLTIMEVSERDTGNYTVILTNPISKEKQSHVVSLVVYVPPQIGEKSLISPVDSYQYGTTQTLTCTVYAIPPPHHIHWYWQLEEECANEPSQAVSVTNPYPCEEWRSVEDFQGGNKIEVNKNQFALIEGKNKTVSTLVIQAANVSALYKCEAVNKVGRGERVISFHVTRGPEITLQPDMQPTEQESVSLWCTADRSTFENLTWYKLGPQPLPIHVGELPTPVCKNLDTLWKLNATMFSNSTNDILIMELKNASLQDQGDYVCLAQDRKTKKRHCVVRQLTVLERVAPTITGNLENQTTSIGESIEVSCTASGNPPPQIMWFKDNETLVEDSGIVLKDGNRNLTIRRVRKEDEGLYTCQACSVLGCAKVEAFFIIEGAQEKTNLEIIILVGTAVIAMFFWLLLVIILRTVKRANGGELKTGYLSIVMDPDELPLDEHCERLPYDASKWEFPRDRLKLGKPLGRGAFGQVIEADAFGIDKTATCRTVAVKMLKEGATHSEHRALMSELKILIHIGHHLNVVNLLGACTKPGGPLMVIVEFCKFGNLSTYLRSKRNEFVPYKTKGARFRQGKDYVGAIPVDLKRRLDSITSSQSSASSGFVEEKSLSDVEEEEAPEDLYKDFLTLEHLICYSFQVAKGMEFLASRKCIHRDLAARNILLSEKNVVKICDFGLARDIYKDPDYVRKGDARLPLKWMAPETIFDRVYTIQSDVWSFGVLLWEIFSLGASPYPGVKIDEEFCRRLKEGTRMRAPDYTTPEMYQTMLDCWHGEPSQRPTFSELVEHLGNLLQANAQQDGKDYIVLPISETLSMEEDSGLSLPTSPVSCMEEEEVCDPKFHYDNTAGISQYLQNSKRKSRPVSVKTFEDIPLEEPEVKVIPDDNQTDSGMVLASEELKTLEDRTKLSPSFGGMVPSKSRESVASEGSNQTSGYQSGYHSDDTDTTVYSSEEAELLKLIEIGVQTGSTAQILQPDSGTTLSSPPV

# Set 1
# Compound: COc1ccc(Cl)cc1NC(=O)Nc1cc(C)nc2ccccc12
# Effect on: enzyme activity
# Mode: inhibitor
# Tested at: 0.5 µM
# Reference: control
target,remaining activity [%]
"NEK3 (Homo sapiens, UniProt P51956)",114
"PLK3 (Homo sapiens, UniProt Q9H4B4)",100
"ROCK1 (Homo sapiens, UniProt Q13464)",100
"MARK4 (Homo sapiens, UniProt Q96L34)",79.7
"PAK3 (Homo sapiens, UniProt O75914)",98.9
"DCLK2 (Homo sapiens, UniProt Q8N568)",96.5
"CDC42BPB (Homo sapiens, UniProt Q9Y5S2)",94.4
"KDR (Homo sapiens, UniProt P35968)",92.8
"MAP2K1 (Homo sapiens, UniProt Q02750)",101
"MET (Homo sapiens, UniProt P08581)",96.6
"GRK4 (Homo sapiens, UniProt P32298)",105
"MAPK14 (Homo sapiens, UniProt Q16539)",98.5
"MAPK11 (Homo sapiens, UniProt Q15759)",92

# Set 2
# Cell line: HaCaT
# Tested at: 100 µM
# Time: 18 h
SMILES,viability
CCCc1cc(=O)[nH]c(=S)[nH]1,99.2%
Clc1ccc(C(Cn2ccnc2)OCc2c(Cl)cccc2Cl)c(Cl)c1 (stereo not drawn),87.3%
Cn1c(=O)cc(N2CCC[C@@H](N)C2)n(Cc2ccccc2C#N)c1=O,108%
Cn1c(=O)c2c(ncn2CCO)n(C)c1=O,107%

# Set 3
# Cell line: mouse MPNST tumor cells
# Method: high-content nuclear imaging
# Item: cell number
# Tested at: 10 µM
# Time: 12 h
# Notes: mean of 2 replicates
# Reference: plate mean
# Reading: higher = more cells
SMILES,nuclei count [z-score]
Clc1cccc(-c2nnnn2Cc2cccnc2)c1Cl,1.51
Oc1ccc(C2CNCCc3c2cc(O)c(O)c3Cl)cc1 (stereo not drawn),2.77
O=C(O)CCC(=O)c1ccc(-c2ccccc2)cc1,-0.131
Cc1ccc(-n2sc(=O)n(Cc3ccc(F)cc3)c2=O)cc1,0.464

# Set 4
# Structure (SMILES): O=C1CCc2cc(Nc3cc(OC4CCOCC4)c([N+](=O)[O-])cc3Cl)ccc2N1
# Tested at: 1 µM
target,test,remaining binding
"EGFR (Homo sapiens, UniProt P00533, del746-750)","cell-free assay, competition with immobilised ligand",100%
"EGFR (Homo sapiens, UniProt P00533, L858R)","cell-free assay, competition with immobilised ligand",100%
"MET (Homo sapiens, UniProt P08581, M1250T)","cell-free assay, competition with immobilised ligand",93%
"CDK19 (Homo sapiens, UniProt Q9BWU1)",competition binding,72%
"Ribosomal protein S6 kinase alpha-6, C-terminal kinase domain (RPS6KA6, Homo sapiens, UniProt Q9UK32)","cell-free assay, competition with immobilised ligand",91%

# Mixed results
SMILES,target,test,setting,measurement,result
O=C(O)C1=CC(=C(c2ccc(O)c(C(=O)O)c2)c2ccc(O)c(C(=O)O)c2)C=CC1=O,"DNA polymerase theta, ATPase domain (POLQ, Homo sapiens, UniProt O75417)","ATPase activity, inhibitor, ADP-Glo luminescence","77 µM, mean of duplicates",remaining activity,5.88%
